# Published values pooled from the literature.
# Parts stem from different laboratories: compare values within a part only. Positions count from the first letter of the parent shown.

# Series 1
# Target: RNA binding protein fox-1 homolog 2, RRM domain, GST-SBP tag (RBFOX2, Homo sapiens, UniProt O43251-10, residues 100-194)
# Method: RNA Bind-n-Seq
# Molecule type: RNA
# Sample: in vitro
# Concentration: 365 nM
# Notes: natural RNA segment, single round, ends assumed
# Relative to: no-protein control
# Direction: higher = stronger binding
# Target sequence (chain): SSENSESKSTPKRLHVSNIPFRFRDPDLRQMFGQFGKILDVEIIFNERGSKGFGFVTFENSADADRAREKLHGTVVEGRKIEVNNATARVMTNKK
Oligonucleotide,RBNS enrichment (R)
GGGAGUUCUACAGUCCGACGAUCGUGCCUGCUAGCCAUUGUAUAAAAUUAAAACAUGAAGAAUAUUUGUUUUGAGCAUGGCUAGUGGAUUUACAACAACACAUGCCUGUCACUGCUGGAGUCAGACUUACAAAUGGAAUUCUCGGGUGCCAA,0.365
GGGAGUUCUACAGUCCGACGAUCAUCACCCUGAGCCCCAUUUGCUUCCCAGCCCUGGAGUUUUUACCCGGCUUUGCCUGCCACCUCUGCCCAGGACACUCUUCCCUCUCGGGAUGUGUGAUGAACUCCCAGGAUGGAAUUCUCGGGUGCCAA,0.732
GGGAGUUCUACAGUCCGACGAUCUAUAAUGCAAAGACCAGCUCCUUUGCGGUGGCAGUGCUCUAGGGCUGCCAUUACACGGUCUUGUGAUGUGACUAAAAGCCACUUUGUGACUCCCUUCAUGUAAUCCUCUUUGGAAUUCUCGGGUGCCAA,0.325
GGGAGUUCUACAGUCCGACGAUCCUCUAGAUAUUAGUUGAAUGUUGAGGCUUUAACUUUUUCGGUGUCUUUCUACAACUGUGUUCUGUGACUCAAUUGUAUCGUGUUAAUAUCAGUGCAGACUGUCUCCUCUAUGGAAUUCUCGGGUGCCAA,0.367
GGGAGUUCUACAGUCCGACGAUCACAUUCCACCUCCAUCUCUGCUUGUGUCCCUCACAUCAGCAUUAAUCUUUGUUUCCCUCACACUUAGAGCCACUAAGUCUGCAGUUCUUUUUGAAUGUGAAACACAUCUGUGGAAUUCUCGGGUGCCAA,0.613
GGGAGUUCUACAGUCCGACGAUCCGGAUUUGUCUGCAAGACUUUCUCCACGUGCCCUUGACAUUGGAAUCACUUGUGGGGCCUCCUAGGGUGUUUGGAGGUGAUAUGGUGUCUAUCAUGUGCAUAGGCAGAAGUGGAAUUCUCGGGUGCCAA,0.537
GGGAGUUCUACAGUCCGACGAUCCACAGCACCAAACCCAGCUAAGUACAGCGUCUAAACAUUUCUUAAAGCAUAUGAUAUUGGUUUUAAUAUAUUUACCAAAAGUACUAUUGCUUGGAUAUAAAAUCACUGAGUGGAAUUCUCGGGUGCCAA,0.413
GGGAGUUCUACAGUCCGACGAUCGGUUUGUCCCAGCUGAAGUGAAGCAAGAGAGUUUGAAUUAAUUUUUCCAUUAUAAUGUUUUCGCAUGUCUGCCUCUAAAACUGUGAUUUUCAAGCUUUAGCGUGCAUCAGUGGAAUUCUCGGGUGCCAA,8.02

# Series 2
# Target: Histone acetyltransferase KAT6A, winged helix 1, GST fusion (KAT6A, Homo sapiens, UniProt Q92794, residues 1-85)
# Method: protein binding microarray
# Molecule type: double-stranded DNA, one strand shown
# Sample: in vitro
# Concentration: not given
# Notes: 8-mer, flanks averaged, mean of 2 arrays, mostly near background
# Relative to: not given
# Direction: higher = stronger binding
# Residues (chain): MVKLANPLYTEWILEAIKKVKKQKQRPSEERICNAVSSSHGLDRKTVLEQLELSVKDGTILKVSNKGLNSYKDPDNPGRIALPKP
Oligonucleotide,E-score
ATTCAGTA,-0.0595
CACGAAGC,0.0244
ACCCCTAA,-0.148
ACTGCGTA,0.159
CAATATAC,-0.0204
GGCTGACA,0.153
CGACCTAA,0.0062
CTTTAAAG,-0.113

# Further values, each from its own experiment
# P1: viral docking peptide; TSVRRALFTGGSD; partner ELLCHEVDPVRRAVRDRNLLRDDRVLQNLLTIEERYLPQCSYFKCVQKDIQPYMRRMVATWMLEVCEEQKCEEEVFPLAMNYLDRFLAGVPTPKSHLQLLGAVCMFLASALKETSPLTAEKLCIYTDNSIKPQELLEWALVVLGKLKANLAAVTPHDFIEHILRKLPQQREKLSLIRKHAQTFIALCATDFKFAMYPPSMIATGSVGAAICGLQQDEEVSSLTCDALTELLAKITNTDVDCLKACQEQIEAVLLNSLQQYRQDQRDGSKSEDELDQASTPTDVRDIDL
Substance,target,test,test system,setting,how to read,measurement,result
P1 A6E,"CCND2, cyclin fold, Cln2 fusion (human)","yeast growth competition, sequencing",yeast,weak parent motif,"relative to: not given, higher = stronger binding",normalised enrichment score,0.221
"PhoQ, residues 284 288 289 292 302 303 GANMMA","PhoP, residues 12 14 15 18 19 VHSCL (Escherichia coli, UniProt P23836)","Sort-seq, refers to: YFP reporter",E. coli,"PhoQ-PhoP variant library, added: 10 µM Mg2+","relative to: high Mg2+ state, higher = stronger signaling",fold induction,1.75
